Published values gathered from unrelated publications.
Lines come from different studies, so protocols differ. Several values in a cell are separate wells, animals, samples, runs or records. ± marks the error that the study gave.

Compound | tested on | test | system | setting | scale | endpoint | result
CC12CCCC(n3cc(C(=O)N4CCOCC4)nn3)(C1)C1CC(C)(C)C1CC2 (stereo not drawn) | HT-29 | cell growth or viability, CCK-8 |  | 50 µM |  | inhibition | 55%
CCN(CC)CC(=O)Nc1cccc(-n2cc(-c3ccc4ccc(-c5cn(-c6cccc(NC(=O)CN(CC)CC)c6)nn5)cc4c3)nn2)c1 | RCC4 | PCR array, item: CTGF |  | 5 x IC50, 2 h, normoxia | baseline: untreated | fold regulation | 1.03
O=C(Nc1ccc(Cl)c(C(F)(F)F)c1)C1(C(=O)Nc2ccc3c(/C=C/c4ccccn4)n[nH]c3c2)CC1 | BaF3 | cell growth or viability, CCK-8 |  |  |  | GI50 | > 10 µM
O=C(Nc1ccc([C@H]2[C@@H](F)[C@@H](F)C[C@@H](F)[C@H]2F)cc1)C1CC1 |  | liver microsome stability | dog liver microsomes | 1 µM |  | hepatic clearance | 24 mL/min/kg
O=S(=O)(N[C@H]1CCO[C@@H](C2c3ccc(F)cc3CCc3cc(F)ccc32)C1)c1ccc(OC(F)(F)F)cc1 | D425 | CellTiter |  | concentration not given, 72 h |  | cell proliferation | decreased
CC(C)S(=O)(=O)NC12CCCC(C)(CCC3C1CC3(C)C)C2 (stereo not drawn) | HT-29 | cell growth or viability, CCK-8 |  | 10 µM |  | inhibition | < 50%
CC[C@H](NC(=O)[C@@H](NC(=O)[C@H](CC(=O)O)NC(C)=O)[C@@H](C)O)C(=O)N[C@@H](CC(=O)O)C(=O)COC(=O)c1c(C)cccc1C | THP-1 cells, LPS-primed | pyroptosis, LDH release |  | 25 µM, LPS 1 µg/mL, 4 h, with: nigericin 5 µM, 2 h |  | cell lysis | 83.9%
N#C[C@@H]1CC(F)(F)CN1C(=O)CNC(=O)c1ccnc2ccc(OCCCN3CCN(C(=O)CCc4ccc(O)c(CN5CCN6CC(=O)[O][Al-]([18F])([O]C(=O)C5)[O]c5ccc(CCC(=O)N7CCN(CCCOc8ccc9nccc(C(=O)NCC(=O)N%10CC(F)(F)C[C@H]%10C#N)c9c8)CC7)cc5C6)c4)CC3)cc12 (stereo partly drawn) | HT1080 cells expressing human FAP |  |  | 60 min, 37 °C |  | internalized fraction | 81.4 ± 3.2%
O=C(C[Se]C(=O)c1ccc2ccccc2n1)Nc1cccc(C(F)(F)F)c1 | NCI60 NSCLC subpanel mean | cell growth |  |  |  | TGI | 3.5 µM
C[C@@H]1CC[C@@H]([C@@](O)(COCc2ccccc2)Cn2cnc3ccccc32)[C@H](OCc2ccccc2)C1 | A2780 | cell growth or viability, MTT |  | 30 µM, 72 h |  | inhibition | 90.4%
CC(C)c1ccc(N(C)c2ccc3c(c2)OCC[C@H]3CNc2cnccc2C(=O)O)cc1 | HCC1187 | cell growth or viability, ATP luminescence |  | 7 days |  | IC50 | 0.00651 µM
COC1CCN(C(=O)/C=C/c2nn(Cc3cccc(C(F)(F)F)c3)c3nc(NC(C)C)ncc23)CC1 | OE33 | cell growth or viability, resazurin |  | 5 days |  | EC50 | 4.02 µM
C[C@@H]1CC[C@@H]([C@@](O)(CNCc2ccc(F)cc2)COCc2ccccc2)[C@H](OCc2ccccc2)C1 | A2780 | cell growth or viability, MTT |  | 30 µM, 72 h |  | inhibition | 94%
CC(C)(C)c1nc(-c2cccc(NS(=O)(=O)c3c(F)cccc3F)c2F)c(-c2ccnc(N)n2)s1.Cc1[nH]c2ccccc2c1CCNCc1ccc(/C=C/C(=O)NO)cc1 | A2780 | annexin V/PI flow cytometry |  | concentration not given, 48 h | baseline: untreated | late apoptotic cells | 6.7 ± 0.7%
CSC(=S)N/N=C(\C)c1ccc(S(=O)(=O)N2CCC(C)CC2)cc1 | MCF7 | annexin V/PI |  | concentration not given, 72 h, at IC50 |  | total apoptotic cells | 15.5%
COC(=O)c1cc(NC2=NC(=O)C(=Cc3ccc(N(C)C)cc3)S2)ccc1OC(C)=O | A549 | item: CDC14A mRNA |  | 2.93 µM, 24 h | baseline: DMSO | fold change | 0.0143
CC(=O)N[C@H](C(=O)N[C@@H](CCC(=O)O)C(=O)N[C@@H](CO)C(=O)N[C@@H](CC(=O)O)C(=O)COC(=O)c1c(C)cccc1C)[C@@H](C)O | THP-1 cells, LPS-primed | pyroptosis, LDH release |  | 25 µM, LPS 1 µg/mL, 4 h, with: nigericin 5 µM, 2 h |  | cell lysis | 86.2% and 84.9%
Cc1cc(Cl)cc(-c2ccnc3cc(CN4C(=O)C5C(C4=O)C5(C)C)sc23)c1C[C@@H]1CNCCO1 (stereo partly drawn) | CHP-212 parental | PI flow cytometry |  | 0.3 µM, 24 h |  | G2/M phase cells | 14.3%
Cc1ncsc1-c1ccc(C(C)NC(=O)C2CC(O)CN2C(=O)C(NC(=O)CCCCCCCCCCN2CCCC(Nc3ncc(Cl)c(Nc4ccccc4S(=O)(=O)C(C)C)n3)C2)C(C)(C)C)cc1 (stereo not drawn) | 22Rv1 | RNA-seq, item: SFT2D3 mRNA |  | concentration not given | baseline: DMSO | log2 fold change | -1.26
O=C(CN1CCOCC1)Nc1ccc([C@H]2[C@@H](F)[C@@H](F)C[C@@H](F)[C@H]2F)cc1 |  | hepatocyte stability | cryopreserved human hepatocytes | 1 µM |  | hepatic clearance | 6.2 mL/min/kg
C=CCc1c(O)cc2c(c1O)C(=O)CC(c1ccc(O)cc1)O2 (stereo not drawn) | HeLa | cell growth or viability, MTT |  | 6.25 µM, 48 h |  | inhibition | 1.91%
O=S(=O)(N[C@H]1CCO[C@@H](C2c3ccccc3CCc3ccccc32)C1)c1ccc(OC(F)(F)F)cc1 | D341 | immunoblot |  | concentration not given |  | CCR2 protein level | decreased
CCN(C(=O)c1cc(F)ccc1Oc1nncnc1N1CCC2(C1)CN([C@H](CCCN(C)CCOC)C(C)C)C2)C(C)C | A2780 | cell growth or viability |  | 7 days |  | GI50 | > 10 µM

Compound | tested on | test | system | setting | scale | endpoint | result
CC1(C)CC(=O)C2=C(C1)Oc1ccc3ccccc3c1C2c1c[nH]c2ccccc12 (stereo not drawn) | 3T3-L1 mature adipocytes | lipolysis, Oil Red O staining |  | IC20 |  | mean lipid content | 0.622 OD492
COc1cc(N2CCN(C(=O)CCOCCNC(=O)[C@@H]3CCCN3)CC2)ccc1Nc1ncc(Cl)c(Nc2ccccc2P(C)(C)=O)n1 | NCI-H3122 | flow cytometry |  | 500 nM, 24 h |  | S phase cells | 30%
N#C[C@@H]1CCCN1C(=O)CNC(=O)c1ccnc2ccc(OCCCN3CCN(C(=O)CCc4ccc5c(c4)CN4CCN6CC(=O)[O][68Ga-]([O]C(=O)C4)([O]5)[O]c4ccc(CCC(=O)N5CCN(CCCOc7ccc8nccc(C(=O)NCC(=O)N9CCC[C@H]9C#N)c8c7)CC5)cc4C6)CC3)cc12 | HT1080 cells expressing human FAP |  |  | 120 min, 37 °C |  | internalized fraction | 80.9 ± 1.7%
CCc1c(-c2ccc3[nH]ncc3c2)cnc(N)c1-c1ccc(O)cc1 | CHP-212 resistant sublines, USP7 V517F heterozygous |  |  | 1.562 µM |  | viability | 114%
CC12CCCC(NS(=O)(=O)c3ccc(Cl)c([N+](=O)[O-])c3)(C1)C1CC(C)(C)C1CC2 (stereo not drawn) | HT-29 | cell growth or viability, CCK-8 |  | 10 µM |  | inhibition | < 50%
Cn1ncc2cc(-c3cncc(Cl)c3N3CCC4(CCNC4=O)CC3)ccc21 | LS174T | gene expression, microarray, item: EXD3 mRNA |  | concentration not given, 4 h | baseline: untreated cells | log2 fold change | -1.01
CC(=O)N[C@H](C(=O)N[C@@H](CCC(=O)O)C(=O)N[C@@H](C)C(=O)N[C@@H](CC(=O)O)C(=O)COC(=O)c1c(C)cccc1C)C(C)C | THP-1 cells, LPS-primed | pyroptosis, LDH release |  | 25 µM, LPS 1 µg/mL, 4 h, with: nigericin 5 µM, 2 h |  | cell lysis | 94.6% and 99%
CCC(=CCc1c(O)cc2c(c1O)C(=O)CC(c1ccc(O)cc1OC)O2)CC (stereo not drawn) | HeLa | cell growth or viability, MTT |  | 25 µM, 48 h |  | inhibition | 71.4%
CCCCCCc1cccc([C@H](O)C[C@H](CO)NC(=O)CCCCCOc2ccc3ccccc3c2)c1 | HeLa | HPLC-MS-MS lipidomics, item: C20 SM and ceramide |  | 1 µM, 24 h | baseline: SM over Cer | SM/Cer ratio | 35 ,0
CCC(=CCc1c(O)cc2c(c1O)C(=O)CC(c1ccc(OC)cc1O)O2)CC (stereo not drawn) | HeLa | cell growth or viability, MTT |  | 25 µM, 48 h |  | inhibition | 73.1%
CN(C)CCCS(=O)(=O)NC12CCCC(C)(CCC3C1CC3(C)C)C2 (stereo not drawn) | HT-29 | cell growth or viability, CCK-8 |  | 10 µM |  | inhibition | 78%
C=CC(=O)N1CCCC(n2c(=O)c3ncccc3n(Cc3ccc(Oc4ccccc4)cc3)c2=O)C1 (stereo not drawn) | OCI-LY19 | annexin V/PI flow cytometry |  | 500 nM, 72 h |  | early apoptotic cells | 6.12%
COc1cccc(CNC[C@@](O)(COCc2ccccc2)[C@@H]2CC[C@@H](C)C[C@H]2OCc2ccccc2)c1 | A2780 | cell growth or viability, MTT |  | 10 µM, 72 h |  | inhibition | 84.1%
CCC(=CCc1c(O)cc2c(c1O)C(=O)CC(c1ccc(OC)c(O)c1)O2)CC (stereo not drawn) | HeLa | cell growth or viability, MTT |  | 6.25 µM, 48 h |  | inhibition | 17.2%
Cc1ccc(S(=O)(=O)NC23CCCC(C)(CCC4C2CC4(C)C)C3)cc1 (stereo not drawn) | HT-29 | cell growth or viability, CCK-8 |  | 10 µM |  | inhibition | < 50%
CC(=O)N[C@@H](Cc1c[nH]c2ccccc12)C(=O)N[C@@H](CCC(=O)O)C(=O)N[C@@H](C)C(=O)N[C@@H](CC(=O)O)C(=O)COC(=O)c1c(C)cccc1C | THP-1 cells, LPS-primed | pyroptosis, LDH release |  | 25 µM, LPS 1 µg/mL, 4 h, with: nigericin 5 µM, 2 h |  | cell lysis | 29.8% and 44.5%
Cc1ccc2oc(=O)cc(Cn3ccnc3)c2c1 | COS-7 (untransfected) |  |  | 500 µM, unit not given | baseline: 3 µM ionomycin | calcium mobilisation signal | 3.65 ± 3.32
CC(C)C[C@@H](NC(=O)[C@H](C)NC(=O)CNC(=O)[C@@H](NC=O)C(C)C)C(=O)N[C@@H](C)C(=O)N[C@@H](C(=O)N[C@H](C(=O)N[C@@H](C(=O)N[C@@H](Cc1c[nH]c2ccccc12)C(=O)N[C@H](CC(C)C)C(=O)N[C@@H](Cc1c[nH]c2ccccc12)C(=O)N[C@H](CC(C)C)C(=O)N[C@@H](Cc1c[nH]c2ccccc12)C(=O)N[C@H](CC(C)C)C(=O)N[C@@H](Cc1c[nH]c2ccccc12)C(=O)NCCO)C(C)C)C(C)C)C(C)C | MCF7 | flow cytometry |  | 500 nM, 48 h |  | cells in S phase | 9.72 ± 0.15%
CN1CCCNC(=O)c2cccc(c2)C(=O)NCCCN(C)CCCNc2cccc3c2C(=O)c2cccc(c2C3=O)NCCC1 | SAS | RNA-Seq, item: HDAC7 mRNA |  | 1 µM, 6 h | baseline: untreated cells | log2 fold change | -1.12
O=c1cc(NCCCO)c2ccccc2o1 | COS-7 (untransfected) |  |  | 500 µM, unit not given | baseline: 3 µM ionomycin | calcium mobilisation signal | 0.94 ± 0.35
CCC(=CCc1c(O)cc2c(c1O)C(=O)CC(c1cc(OC)ccc1O)O2)CC (stereo not drawn) | HeLa | cell growth or viability, MTT |  | 100 µM, 48 h |  | inhibition | 34.8%
CNS(=O)(=O)Nc1nccc(Cc2c(C)c3ccc(Oc4ncccc4F)cc3oc2=O)c1F | AM-38 | cell viability |  | 7 days |  | IC50 | 0.322 µM
